Published values gathered from unrelated publications.
“And” joins repeats or separate records; there may be more than shown. ± marks the error that the study gave.
rep main protease: Replicase polyprotein 1ab, main protease (rep, Severe acute respiratory syndrome coronavirus 2, UniProt P0DTD1)
Spike glycoprotein: Spike glycoprotein (Severe acute respiratory syndrome coronavirus 2, UniProt P0DTC2)

Substance	target or system	test	test system	conditions	how to read	endpoint	value
COCCCNC(=O)C1CCN(Cc2cc3ccccc3n2Cc2cccc(Cl)c2)CC1	SARS-CoV-2	cytopathic effect	USA_WA1/2020	retest, 8-point, duplicates	–	efficacy	0%
C[C@@]12C[C@@]3(O)O[C@@H](O1)[C@]1(COC(=O)c4ccc(O)cc4)[C@H]3C[C@@]12O[C@@H]1O[C@H](COC(=O)c2ccccc2)[C@@H](O)[C@H](O)[C@H]1O	rep main protease	reporter gene (mKate2), inhibitor	–	20 µM	–	inhibition	-0.136%
VPLHGTIL	–	AIM	peptide, CD8+ T cells from PBMC, human donors	HLA-B*07:02 restricted, unit not given	reference: positive over tested donors	frequency of responding donors	25
COc1ccc2cc3[n+](cc2c1OC)CCc1cc2c(cc1-3)OCO2	SARS-CoV-2 spike protein	–	Vero C1008	2.5 µg/mL	–	inhibition	80 ± 0.8%
Cc1cc(/C=C/C#N)cc(C)c1-n1cnc2cnc(Nc3ccc(/C=C/C#N)cc3)nc21	HIV-1	viral replication, single-round infection	RT mutant P236L	–	–	EC50	≤ 0.0021 µM
COc1cccc(-c2ccccc2NC(=O)C2CCN(Cc3ccccc3F)CC2)c1	SARS-CoV-2	cytopathic effect, cell-based CPE	USA_WA1/2020	round 1, 5-point dilution	–	AC50	12.6 µM
Cc1cc(/C=C/C#N)cc(C)c1-n1cnc2cnc(Nc3ccc4cc(C#N)ccc4c3)nc21	HIV-1	viral replication, single-round infection	RT mutant L234I	–	–	EC50	< 0.0023 µM
KEIDRLNEV	human PBMC CD8+ T cells	T cell response	peptide	–	–	positive donors	1 donors
CCCN(CCC)CCNC(=O)c1cc(-c2ccc(Br)s2)nc2ccccc12	SARS-CoV-2	cytopathic effect	USA_WA1/2020	round 2, 5-point	–	efficacy	77.8%
Cn1c(Cn2ccc(C(F)(F)F)c(Oc3cc(Cl)cc(C#N)c3)c2=O)n[nH]c1=O	HIV-1	viral replication, single-round infection	RT mutant D67E	–	–	EC50	0.046 ± 0.014 µM
CC(C)Nc1ccnc(NCc2cccnc2Oc2ccc(F)cc2F)n1	Lassa mammarenavirus	viral replication	Huh-7	10 µM, 72 h	–	remaining activity	34%
DSKTQSLLIVNNATN	human CD4 T cells	AIM	peptide	–	–	responding donors	9%
CC[C@H](C)[C@H](NC(=O)[C@H](Cc1ccc(O)cc1)NC(=O)[C@H](Cc1c[nH]c2ccccc12)NC(=O)[C@H](CC(C)C)NC(C)=O)C(=O)N[C@@H](CCCCN)C(N)=O	–	DSC	SOPC/cholesterol 7/3 bilayers	10 mol%, pH 7.40	–	transition enthalpy	1.1 kcal/mol
Cc1nc2n(n1)CC(=O)N[C@@H](C(C)C)CN(C(=O)c1ccccn1)CC(=O)N[C@@H](CC(C)C)c1nc(cs1)C(=O)N[C@H]2Cc1ccccc1	Lassa mammarenavirus	viral replication	Huh-7	10 µM, 72 h	–	remaining activity	75%
RNRFLYIIK	–	AIM	peptide, CD8+ T cells from PBMC, human donors	HLA-A*30:01 restricted, unit not given	reference: positive over tested donors	frequency of responding donors	50
COP(=O)(OC)OC=C(Cl)Cl	rat CYP3A	midazolam 4-hydroxylation	liver microsomes	concentration not given	–	Vmax	0.53 ± 0.07 nmol/min/mg protein
COc1ccc2cc1OCCN(Cc1cc(CN3CCCCC3)cs1)CC(=O)N[C@H](C(C)C)C(=O)NCCn1ccnc1-2	Lassa mammarenavirus	viral replication	Huh-7	concentration not given	–	Emax	9.76%
FKIYSKHTPINLVRD	human CD4 T cells	AIM	peptide	–	–	responding donors	18%
Nc1ncnc2c([C@@H]3N[C@H](CO)[C@@H](O)[C@H]3O)c[nH]c12	Marburg virus	–	HeLa, Musoke	0.4 µM, 1 h	–	viral RNA copies	2.48e+07 copies/mL
O=C1Nc2ccc(Cl)cc2[C@@](C#CC2CC2)(C(F)(F)F)O1	HIV-1	viral replication, single-round infection	RT mutant K101P	–	–	EC50	0.112 ± 0.0139 µM
VTQNVLYENQKLIAN	human CD4 T cells	AIM	peptide	–	–	responding donors	14%
O=C(/C=C/c1ccc(O)c(O)c1/C=C/c1ccc(O)c(O)c1)O[C@H](Cc1ccc(O)c(O)c1)C(=O)O	Spike glycoprotein	binding, biolayer interferometry	–	–	–	Kd	8.08 µM

Substance	target or system	test	test system	conditions	how to read	endpoint	value
CNC(=O)[C@@H](NC(=O)[C@H](CCCc1ccccc1)[C@H](C)N(O)C=O)C(C)(C)C	rep main protease	reporter gene (mKate2), inhibitor	–	20 µM	–	inhibition	-0.509%
Nc1ncnc2ccc(-c3ccc4c(c3)OCCO4)cc12	Lassa mammarenavirus	viral replication	Huh-7	10 µM, 72 h	–	remaining activity	51%
CC(C)=CCC/C(C)=C/CC/C(C)=C/CC/C(C)=C/CC1=C(C)C(=O)c2ccccc2C1=O	Spike glycoprotein	binding, biolayer interferometry	–	–	–	Kd	87.4 µM
O=C1CC2(CCN(S(=O)(=O)c3ccc(-n4cccn4)cc3)CC2)CN1	Lassa mammarenavirus	viral replication	Huh-7	10 µM, 72 h	–	remaining activity	45%
Cc1noc2c(NC3CCOCC3)cc(-c3cccc(C(F)(F)F)c3)nc12	SARS-CoV-2	cytopathic effect	USA_WA1/2020	round 1, 5-point	–	maximum response	41.7%
RVAGDSGFAAYSRYR	human CD4 T cells	AIM	peptide	–	–	responding donors	15%
CCc1c(C(=O)C(N)=O)c2c(OCC(=O)O)cccc2n1Cc1ccccc1	C2C12	–	–	10 µM, added: MH venom	reference: venom alone	viability difference	12.1%
Cc1cc(/C=C/C#N)cc(C)c1Nc1nc(Nc2ccc(/C=C/C#N)cc2)ncc1N	HIV-1	viral replication, single-round infection	RT mutant V111A	–	–	EC50	0.0001 ± 1e-05 µM
CNCCCC1c2ccccc2C=Cc2ccccc21.Cl	HeLa	Ebola VLP entry	–	–	–	maximal inhibition	98%
CNC(=O)[C@@H](NC(=O)[C@H](CC(C)C)[C@H](O)C(=O)NO)C(C)(C)C	Daboia russelii venom proteases (SVMP)	protease activity, inhibitor	RJ population	1 µM, added: azocasein substrate	reference: venom alone	remaining activity	91.6% and 88.6% and 84.1%
LTGTGVLTESNKKFL	human CD4 T cells	AIM	peptide	–	–	responding donors	7%
Cc1ccc(C)c(Nc2cc(C(=O)NCCCN(C)C3CCCCC3)c3ccccc3n2)c1	SARS-CoV-2	cytopathic effect	USA_WA1/2020	round 2, 5-point	–	efficacy	83.4%
CN(C)CCCN1c2ccccc2Sc2ccc(Cl)cc21	A2780	cell viability, neutral red uptake	–	added: UVA 5 J/cm2	–	IC50	5.7 µM
NC(=O)CCNC(=O)c1ccccc1S	HIV-1	viral replication	human PBMC, subtype C 92BR025, CCR5-tropic clinical isolate	–	–	EC50	4.76 ± 1.15 µM
COc1ccc(CCNC(=O)c2cc(Nc3ccccc3)nc3ccccc23)cc1OC	SARS-CoV-2	cytopathic effect, cell-based CPE	USA_WA1/2020	round 1, 5-point dilution	–	AC50	12.6 µM
C[C@@H]1O[C@@H](O[C@H]2CC[C@]3(C=O)[C@H]4CC[C@]5(C)[C@@H](C6=CC(=O)OC6)CC[C@]5(O)[C@@H]4CC[C@]3(O)C2)[C@H](O)[C@H](O)[C@H]1O	human iPSC-derived cardiomyocytes	MyBP-C/MYH ratio, plate-normalised SD score	–	concentration not given, primary screen	direction not given	activity score	7.1
Cc1cn([C@H]2C[C@H](N=[N+]=[N-])[C@@H](CO)O2)c(=O)[nH]c1=O	HIV-1	viral replication	human PBMC, subtype C 92BR025, CCR5-tropic clinical isolate	–	–	EC50	0.00516 ± 0.00361 µM
CCN(CC)CCNC(=O)c1ccc(-c2nc(CN3CCc4ccccc43)c(C)o2)cc1	SARS-CoV-2	cytopathic effect	USA_WA1/2020	round 2, 5-point	–	efficacy	108%
Cn1cnc(Cn2c(=O)[nH]/c(=N\c3cc4cn(C)nc4cc3Cl)n(Cc3cc(F)c(F)cc3F)c2=O)n1	–	–	human, moderate renal impairment	oral, 375 mg, treatment-related decreased GFR, Severe severity	–	patients with adverse event	0%
Cc1ncccc1-c1nc2cc(C(=O)NCCCc3ccccc3)ccc2o1	SARS-CoV-2	cytopathic effect	USA_WA1/2020	retest, 8-point, duplicates	–	efficacy	51%
CC[C@H](C)[C@H](NC(=O)[C@H](CC(C)C)NC(=O)[C@H](Cc1c[nH]c2ccccc12)NC(=O)[C@H](CCC(N)=O)NC(=O)[C@@H](NC(=O)[C@H](Cc1ccccc1)NC(=O)[C@H](C)NC(=O)[C@H](CCCCNC(=O)COCCOCCNC(=O)COCCOCCNC(=O)CC[C@H](NC(=O)CCCCCCCCCCCCCCCCCCC(=O)O)C(=O)O)NC(=O)[C@H](CCC(N)=O)NC(=O)[C@H](C)NC(=O)[C@@H](NC(=O)[C@H](CCCCN)NC(=O)[C@H](CC(=O)O)NC(=O)[C@H](CC(C)C)NC(=O)C(C)(C)NC(=O)[C@@H](NC(=O)[C@H](CO)NC(=O)[C@H](Cc1ccc(O)cc1)NC(=O)[C@H](CC(=O)O)NC(=O)[C@H](CO)NC(=O)[C@@H](NC(=O)[C@H](Cc1ccccc1)NC(=O)[C@@H](NC(=O)CNC(=O)[C@H](CCC(=O)O)NC(=O)C(C)(C)NC(=O)[C@@H](N)Cc1ccc(O)cc1)[C@@H](C)O)[C@@H](C)O)[C@@H](C)CC)[C@@H](C)CC)C(C)C)C(=O)N[C@@H](C)C(=O)NCC(=O)NCC(=O)N1CCC[C@H]1C(=O)N[C@@H](CO)C(=O)N[C@@H](CO)C(=O)NCC(=O)N[C@@H](C)C(=O)N1CCC[C@H]1C(=O)N1CCC[C@H]1C(=O)N1CCC[C@H]1C(=O)N[C@@H](CO)C(N)=O	–	measured: anti-drug antibodies	patients with type 2 diabetes	5/5/10/15 mg escalating, titer ≥1:20	–	subjects with treatment-induced ADA	0%

A few entries again:
Substance	target or system	test	test system	conditions	how to read	endpoint	value
COCCCNC(=O)C1CCN(Cc2cc3ccccc3n2Cc2cccc(Cl)c2)CC1	SARS-CoV-2	cytopathic effect	USA_WA1/2020	retest, 8-point, duplicates	–	efficacy	0%
CC[C@H](C)[C@H](NC(=O)[C@H](CC(C)C)NC(=O)[C@H](Cc1c[nH]c2ccccc12)NC(=O)[C@H](CCC(N)=O)NC(=O)[C@@H](NC(=O)[C@H](Cc1ccccc1)NC(=O)[C@H](C)NC(=O)[C@H](CCCCNC(=O)COCCOCCNC(=O)COCCOCCNC(=O)CC[C@H](NC(=O)CCCCCCCCCCCCCCCCCCC(=O)O)C(=O)O)NC(=O)[C@H](CCC(N)=O)NC(=O)[C@H](C)NC(=O)[C@@H](NC(=O)[C@H](CCCCN)NC(=O)[C@H](CC(=O)O)NC(=O)[C@H](CC(C)C)NC(=O)C(C)(C)NC(=O)[C@@H](NC(=O)[C@H](CO)NC(=O)[C@H](Cc1ccc(O)cc1)NC(=O)[C@H](CC(=O)O)NC(=O)[C@H](CO)NC(=O)[C@@H](NC(=O)[C@H](Cc1ccccc1)NC(=O)[C@@H](NC(=O)CNC(=O)[C@H](CCC(=O)O)NC(=O)C(C)(C)NC(=O)[C@@H](N)Cc1ccc(O)cc1)[C@@H](C)O)[C@@H](C)O)[C@@H](C)CC)[C@@H](C)CC)C(C)C)C(=O)N[C@@H](C)C(=O)NCC(=O)NCC(=O)N1CCC[C@H]1C(=O)N[C@@H](CO)C(=O)N[C@@H](CO)C(=O)NCC(=O)N[C@@H](C)C(=O)N1CCC[C@H]1C(=O)N1CCC[C@H]1C(=O)N1CCC[C@H]1C(=O)N[C@@H](CO)C(N)=O	–	measured: anti-drug antibodies	patients with type 2 diabetes	5/5/10/15 mg escalating, titer ≥1:20	–	subjects with treatment-induced ADA	0%
Cc1cc(/C=C/C#N)cc(C)c1Nc1nc(Nc2ccc(/C=C/C#N)cc2)ncc1N	HIV-1	viral replication, single-round infection	RT mutant V111A	–	–	EC50	0.0001 ± 1e-05 µM
